Assay results gathered from unrelated publications.
Lines come from different studies, so protocols differ. Values joined by “and” are separate records of one study, mostly repeats; a detail may differ. ± gives the spread as reported.

Compound | assay | system | setting | how to read | endpoint | result
CCCC[C@H](NC(=O)CNC(=O)CNC(=O)CN1CCN(CC(=O)O)CCN(CC(=O)O)CCN(CC(=O)O)CC1)C(=O)N[C@H]1CC(=O)NCCCC[C@@H](C(N)=O)NC(=O)[C@H](Cc2c[nH]c3ccccc23)NC(=O)[C@H](CCCNC(=N)N)NC(=O)[C@@H](Cc2ccccc2)NC(=O)[C@H](Cc2c[nH]cn2)NC1=O [copper-64 labelled] |  | female C57 mouse, B16/F1 melanoma | intravenous, 0.037 MBq, 2 h | reference: tumour over stomach | uptake ratio | 1.09
N=C(N)NCCC[C@@H]1NC(=O)[C@H](Cc2c[nH]c3ccccc23)NC(=O)[C@@H](CC2CCCCC2)NC(=O)[C@@H]2CCCN2C(=O)[C@@H](NC(=O)CCc2ccccc2)CCCNC1=O |  | C57BL/6J mice, plasma | oral, 1 mg/kg, two-compartment model |  | absorption rate constant | 2.24 h⁻¹
CCCC[C@H](NC(C)=O)C(=O)N[C@H]1CC(=O)NCCCC[C@@H](C(=O)N[C@@H](C(=O)N2CCC[C@@H]2C(N)=O)C(C)C)NC(=O)[C@H](Cc2c[nH]c3ccccc23)NC(=O)[C@H](CCCN=C(N)N)NC(=O)[C@@H](Cc2ccc3ccccc3c2)NC(=O)[C@@H]2CCCN2C1=O |  | healthy dogs, plasma | subcutaneous, 2.25 mg/kg per day, day 28, 12 h post-dose, median |  | plasma histamine | 17.1 ng/mL
COc1cc(NC(C)=O)c2c(c1O)-c1c(OC)c(OC)cc3c1C(C2)N(C)CC3 (stereo not shown) |  | rat liver homogenate | 0.5 µg/mL, time not given, three freeze-thaw cycles |  | remaining compound | 102 ± 4.7%
[11CH3]c1ccc2nc(C3CCC3)n(-c3ccc4[nH]ncc4c3)c2n1 |  | human male, spleen |  |  | absorbed radiation dose | 2.1 µSv/MBq
O=C(Cc1ccc2ccccc2c1)N[C@H](Cc1ccc(OP(=O)(O)O)cc1)C(=O)N[C@H](Cc1ccccc1)C(=O)N[C@H](Cc1ccccc1)C(=O)N[C@H](Cc1ccc(OP(=O)(O)O)cc1)C(=O)O | substrate, rheology | hydrogel | 0.5 wt%, added: alkaline phosphatase 0.05 U/mL |  | gelation time | 2.5 h
CC(C)c1cnc(-c2cc(Cl)ccc2F)cc1Nc1ccncc1C(=O)NC(CO)CO | monotherapy, refers to: fatigue | human patients | oral, dose not given, grade 1, phase I A |  | patients with treatment-related adverse event | 7.1%
NC(=O)[C@@H](CCCCNC(=O)CNC(=O)CCC(=O)NCCc1c[nH]cn1)NC(=O)[C@@H](CCC(=O)O)NC(=O)[C@@H](CCCCNC(=O)CNC(=O)CCC(=O)NCCc1c[nH]cn1)NC(=O)[C@@H](Cc1ccc(O)cc1)NC(=O)CN1CCN(CC(=O)O)CCN(CC(=O)O)CCN(CC(=O)O)CC1 [indium-111 labelled] | SPECT | human CEACAM5 tumour patients | dose not given, 24 h, 25 µg IMP288, added: TF2 75 mg, 1 day interval |  | tumour activity concentration | 9.4 %ID/kg
CCCC[C@@H]1NC(=O)[C@@H](NC(=O)[C@H](CCC(=O)O)NC(=O)CNC(=O)CN2CCN(CC(=O)O)CCN(CC(=O)O)CCN(CC(=O)O)CC2)CCCCNC(=O)C[C@@H](C(N)=O)NC(=O)[C@H](C(C)C)NC(=O)[C@@H]2CCCN2C(=O)[C@H](CCCNC(=N)N)NC(=O)CNC(=O)[C@H](Cc2c[nH]c3ccccc23)NC(=O)[C@H](CCCNC(=N)N)NC(=O)[C@@H](Cc2ccccc2)NC(=O)[C@H](Cc2c[nH]cn2)NC(=O)[C@H](CCC(=O)O)NC1=O [gallium-67 labelled] |  | C57 mice, B16/F1 flank melanoma, tumour | intravenous, 0.037 MBq, 24 h |  | tumour uptake | 5.02 ± 1.35 %ID/g
CCCCCCCCCCCCCCCC(=O)N[C@@H](CCC(=O)NCCCC[C@H](NC(=O)[C@H](C)NC(=O)[C@H](C)NC(=O)[C@H](CCC(N)=O)NC(=O)CNC(=O)[C@H](CCC(=O)O)NC(=O)[C@H](CC(C)C)NC(=O)[C@H](Cc1ccc(O)cc1)NC(=O)[C@H](CO)NC(=O)[C@H](CO)NC(=O)[C@@H](NC(=O)[C@H](CC(=O)O)NC(=O)[C@H](CO)NC(=O)[C@@H](NC(=O)[C@H](Cc1ccccc1)NC(=O)[C@@H](NC(=O)CNC(=O)[C@H](CCC(=O)O)NC(=O)[C@H](C)NC(=O)[C@@H](N)Cc1cnc[nH]1)[C@@H](C)O)[C@@H](C)O)C(C)C)C(=O)N[C@@H](CCC(=O)O)C(=O)N[C@@H](Cc1ccccc1)C(=O)N[C@H](C(=O)N[C@@H](C)C(=O)N[C@@H](Cc1c[nH]c2ccccc12)C(=O)N[C@@H](CC(C)C)C(=O)N[C@H](C(=O)N[C@@H](CCCNC(=N)N)C(=O)NCC(=O)N[C@@H](CCCNC(=N)N)C(=O)NCC(=O)O)C(C)C)[C@@H](C)CC)C(=O)O |  | healthy humans, plasma | concentration not given | reference: compound over Victoza | AUC(0-last) ratio | 112%
COc1ccc(-c2csc(N/N=C(\C)c3cc(O)cc(O)c3)n2)cc1 |  | stock and working solutions | concentration not given, 3 months, refrigerated, long-term storage |  | deviation from initial concentration | < 10%
CC(C)(O)c1ncc([S@](N)(=O)=NC(=O)Nc2c3c(cc4c2CCC4)CCC3)s1 |  | healthy human fasted, plasma | oral, 300 mg single dose, CS formulation |  | AUC(0-last) | 63000 ng·h/mL
O=C(CCc1ccc(CNC(C(=O)OC2CCCC2)C2CCCCC2)cn1)NO (stereo not shown) |  | human, plasma | oral, 50 mg, single dose, median |  | Tmax | 0.5 h
COc1ccc(C=NCCCN(C)CCN(C)CCCN=Cc2ccc(OC)cc2[O-])c([O-])c1.[67Ga+3] |  | rat | intravenous, 2 h | reference: heart over liver | tissue uptake ratio | 7.2 ± 0.8
COc1cc2c(cc1OC)CN(CCCCn1ccc3cc(OCC[18F])ccc31)C2 |  | ICR mice, male, stomach | intravenous, 30 min |  | uptake | 2.83 ± 0.54 %ID/organ
Cc1cc(O)cc(O)c1C(=O)c1c2c3c(c(O)cc(C)c3oc1=O)C(=O)c1c(O)cc(O)cc1-2 |  | Caco-2 | 50 µM, 3 h, pH 7.4 |  | Papp B→A | 0.138 ×10⁻⁶ cm/s
Cc1ccc(OCC(=O)O)cc1 |  | Sprague-Dawley rat, male, plasma | oral gavage, 30 mg/kg of parent drug |  | t1/2 | 1.91 h

Compound | assay | system | setting | how to read | endpoint | result
CC(C)CCCC(C)CCCC(C)CCO[C@@H]1O[C@H](CO)[C@@H](O[C@H]2O[C@H](CO)[C@@H](O)[C@H](O)[C@H]2O)[C@H](O)[C@H]1O (stereo partly shown) | drop shape analysis | water/n-octane | 0.01 wt% |  | interfacial tension at tmax | < 1 mN/m
COCCOCCOCCOCCC(=O)NCc1cc(CNC(=O)CCOCCOCCOCCOC)cc(-c2cc3cc4nc(c(-c5ccc(CCC(=O)O)cc5)c5[nH]c(cc6nc(c(OC)c2[nH]3)CC6(C)C)cc5-c2cc(CNC(=O)CCOCCOCCOCCOC)cc(CNC(=O)CCOCCOCCOCCOC)c2)CC4(C)C)c1 |  | DMF | room temperature |  | kf^−1 | 23 ns
NC(=O)[C@@H](Cc1ccccc1)N[11C](=O)OCc1ccccc1 |  | male Wistar rats, plasma | intravenous, 5 min |  | intact tracer | 79.6% and 80%
CC(C)[C@H](NC(=O)[C@@H]1CCCN1C(=O)[C@H](CCCNC(=N)N)NC(=O)[C@H](CS)NC(=O)[C@H](Cc1c[nH]c2ccccc12)NC(=O)[C@H](CCCNC(=N)N)NC(=O)[C@@H](Cc1ccccc1)NC(=O)[C@H](Cc1c[nH]cn1)NC(=O)[C@H](CCC(=O)O)NC(=O)[C@H](CS)NC(=O)[C@H](CS)NC(=O)[C@@H]1CC(=O)N[C@@H](CCCNC(=N)N)C(=O)NCC(=O)N[C@@H](CC(=O)O)C(=O)N[C@H](Cc2ccc(O)cc2)C(=O)N1)C(N)=O [technetium-99m labelled] |  | C57 mouse, female, B16/F1 melanoma | intravenous, 0.037 MBq, 24 h | reference: tumour over muscle | tumour to tissue ratio | 26.1
COC(=O)c1ccc2c(c1)NC(=O)/C2=C(\Nc1ccc2c(c1)CCN2C(=O)CN1CCOCC1)c1ccccc1 |  | cynomolgus monkey, plasma | oral, 5 mg/kg |  | dose-normalized Cmax | 73 ± 54 ng/mL
CC[C@@H](C)[C@@H](NC(=O)[C@@H](C)NC(=O)[C@@H](CCCCN)NC(=O)[C@@H](CC(C)C)NC(=O)[C@@H](C)NC(=O)[C@H](NC(=O)[C@@H](Cc1c[nH]cn1)NC(=O)[C@@H](CC(C)C)NC(=O)[C@H](NC(=O)[C@H](NC(=O)[C@@H](CCCCN)NC(=O)[C@H](NC(=O)[C@@H](C)NC(=O)[C@@H](CO)NC(=O)[C@@H](CCCCN)NC(=O)[C@@H](Cc1ccccc1)NC(=O)[C@H](NC(=O)[C@@H](CCCCN)NC(=O)[C@@H](CC(C)C)NC(=O)[C@@H](Cc1ccccc1)NC(=O)[C@@H](CO)NC(=O)[C@@H](CCCCN)NC(=O)[C@@H](Cc1c[nH]c2ccccc12)NC(=O)[C@@H](CCCCN)NC(C)=O)[C@H](C)O)C(C)C)[C@H](C)O)C(C)C)[C@H](C)O)C(=O)N[C@H](CO)C(=O)N[C@H](CO)C(N)=O | circular dichroism | aqueous buffer | pH 7.0, 5 °C | reference: reference peptide in TFE | helical content | 34%
Oc1ccc2ccccc2c1/N=N/c1ccc(/N=N/c2ccccc2)cc1 |  | rat whole blood QC samples | 16.0 µg/L, 12 h, room temperature, short-term stability |  | measured concentration | 16.1 µg/L
CC(C)c1ccc2c(c1)CCC1C(C)(CN(CC(O)C[N+](C)(C)C)CC(O)C[N+](C)(C)C)CCCC21C (stereo not shown) |  | mouse red blood cells | 1 h, 37 °C |  | HC50 | > 1000 µg/mL
Cn1c(=O)oc2ccc(-c3ccc(CC(C#N)NC(=O)C4CNCCCO4)c(F)c3)cc21 (stereo not shown) |  | human | 40 mg, single dose, fasted |  | tlag median | 0 h
O=C(NCCCN(CCCCN(CCCNC(=O)c1cccc(=O)n1[O-])C(=O)c1cccc(=O)n1[O-])C(=O)c1cccc(=O)n1[O-])c1cccc(=O)n1[O-].[89Zr+4] |  | mouse, intestine | 4 h |  | tracer uptake | 7.17 %ID/g
O=C(O)c1cccc(S(=O)(=O)Nc2ccccc2)c1 |  | human, moderate liver dysfunction, plasma | intravenous, 400 mg/m^2 belinostat, cycle 1 day -7, geometric mean | reference: metabolite over belinostat | AUC(0-inf) metabolic ratio | 0.916
Cc1ccc(OCC(=O)N(Cc2cccs2)c2ccn[nH]2)cc1 |  | male Sprague-Dawley rat, plasma | oral, 100 mg/kg, single dose |  | Tmax | 1 h
CC(=O)N[C@H](CC(=O)O)C(=O)N[C@H](Cc1c[nH]c2ccccc12)C(=O)N[C@H](Cc1ccccc1)C(=O)N[C@H](CCCCN)C(=O)N[C@H](C)C(=O)N[C@H](Cc1ccccc1)C(=O)N[C@H](Cc1ccc(O)cc1)C(=O)N[C@H](CC(=O)O)C(=O)N[C@H](CCCCN)C(=O)N[C@@H](C(=O)N[C@H](C)C(=O)N[C@H](CCC(=O)O)C(=O)N[C@H](CCCCN)C(=O)N[C@H](Cc1ccccc1)C(=O)N[C@H](CCCCN)C(=O)N[C@H](CCC(=O)O)C(=O)N[C@H](C)C(=O)N[C@H](Cc1ccccc1)C(N)=O)C(C)C |  | statin-treated high-risk CHD men, plasma | oral, 500 mg daily, day 1, 0 to 2 h, mean, all subjects |  | AUC(0-t) | 32.9 ng·h/mL
COc1ccc(NC(=O)[C@H](CCCCN)NC(=O)c2cc(NC(=O)[C@H](CCCCN)NC(=O)c3cc(NC(=O)[C@H](CCCCN)NC(=O)c4cc(NC(C)=O)ccc4OC)ccc3OC)ccc2OC)cc1C(N)=O | UV-vis λmax shift | TBS | pH 7.4, monomer-hexamer fit, added: NaCl 0.15 M |  | association midpoint concentration | 0.07 mM
CC(C)[C@H](NC(=O)CNC(=O)[C@H](CCC(N)=O)NC(=O)[C@H](C)N)C(=O)O | LC-MS/MS | human, male, plasma | intravenous, 10 mg/kg three times daily, day 1, first dose, 10 min infusion, geometric mean |  | clearance | 600 mL/min/kg
CCN(CC)c1ccc2c(-c3ccccc3C(=O)OCCOCCOCC[18F])c3ccc(=[N+](CC)CC)cc-3oc2c1 |  | rat, gut | dose not given, 60 min post injection |  | tissue uptake | 0.44 ± 0.09 %ID/g
NC12CNCCNCC(NCc3ccc(CNC(=O)CCCC(=O)NCc4ccc(-c5nncnn5)cc4)cc3)(CNCCNC1)CNCCNC2.[64Cu+2] | OLINDA dosimetry | small intestine | 24 h pretargeting interval, added: huA33-TCO pretargeting |  | mean absorbed dose | 0.042 rad/mCi

Excerpt of the above:
Compound | assay | system | setting | how to read | endpoint | result
CCCC[C@H](NC(C)=O)C(=O)N[C@H]1CC(=O)NCCCC[C@@H](C(=O)N[C@@H](C(=O)N2CCC[C@@H]2C(N)=O)C(C)C)NC(=O)[C@H](Cc2c[nH]c3ccccc23)NC(=O)[C@H](CCCN=C(N)N)NC(=O)[C@@H](Cc2ccc3ccccc3c2)NC(=O)[C@@H]2CCCN2C1=O |  | healthy dogs, plasma | subcutaneous, 2.25 mg/kg per day, day 28, 12 h post-dose, median |  | plasma histamine | 17.1 ng/mL
CC(C)c1cnc(-c2cc(Cl)ccc2F)cc1Nc1ccncc1C(=O)NC(CO)CO | monotherapy, refers to: fatigue | human patients | oral, dose not given, grade 1, phase I A |  | patients with treatment-related adverse event | 7.1%
O=C(CCc1ccc(CNC(C(=O)OC2CCCC2)C2CCCCC2)cn1)NO (stereo not shown) |  | human, plasma | oral, 50 mg, single dose, median |  | Tmax | 0.5 h
